# Results of several laboratories.
# Each line is one published result; not all experiments were run side by side. “And” joins repeats or separate records; there may be more than shown. Numbers after ± are the reported error.
# U2AF2: U2AF2 148-342 (Homo sapiens, UniProt P26368)
# UniProt P26368, sequence (whole entry, looked up): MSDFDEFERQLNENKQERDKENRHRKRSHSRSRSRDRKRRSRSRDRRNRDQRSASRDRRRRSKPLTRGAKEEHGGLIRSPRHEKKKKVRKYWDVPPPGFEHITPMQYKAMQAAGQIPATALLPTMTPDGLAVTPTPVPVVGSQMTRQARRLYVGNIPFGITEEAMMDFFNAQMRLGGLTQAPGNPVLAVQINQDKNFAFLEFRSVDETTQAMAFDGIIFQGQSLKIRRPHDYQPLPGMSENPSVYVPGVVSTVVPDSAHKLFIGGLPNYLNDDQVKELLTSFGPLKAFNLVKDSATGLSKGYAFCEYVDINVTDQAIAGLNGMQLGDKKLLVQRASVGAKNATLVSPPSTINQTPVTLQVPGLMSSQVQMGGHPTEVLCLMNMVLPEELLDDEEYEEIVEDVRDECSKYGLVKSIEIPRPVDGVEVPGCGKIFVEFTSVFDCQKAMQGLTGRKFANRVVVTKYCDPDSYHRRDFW
# T1: TOA1/TOA2 1-286; 1-122 (Saccharomyces cerevisiae); chain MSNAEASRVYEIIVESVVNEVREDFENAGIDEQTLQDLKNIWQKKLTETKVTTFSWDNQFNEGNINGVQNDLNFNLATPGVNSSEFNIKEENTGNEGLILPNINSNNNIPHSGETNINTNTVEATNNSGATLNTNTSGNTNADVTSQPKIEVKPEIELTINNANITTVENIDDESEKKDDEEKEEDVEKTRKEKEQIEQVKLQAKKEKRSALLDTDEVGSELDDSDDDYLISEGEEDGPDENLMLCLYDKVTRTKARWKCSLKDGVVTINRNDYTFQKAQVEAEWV; chain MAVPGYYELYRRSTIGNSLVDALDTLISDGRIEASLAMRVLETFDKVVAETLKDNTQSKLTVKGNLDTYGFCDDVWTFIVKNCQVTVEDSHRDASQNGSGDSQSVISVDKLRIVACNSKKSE
# B1: STK38 (human); sequence looked up; chain AMTGSTPCSSMSNHTKERVTMTKVTLENFYSNLIAQHEEREMRQKKLEKVMEEEGLKDEEKRLRRSAHARKETEFLRLKRTRLGLEDFESLKVIGRGAFGEVRLVQKKDTGHVYAMKILRKADMLEKEQVGHIRAERDILVEADSLWVVKMFYSFQDKLNLYLIMEFLPGGDMMTLLMKKDTLTEEETQFYIAETVLAIDSIHQLGFIHRDIKPDNLLLDSKGHVKLSDFGLCTGLKKAHRTEFYRNLNHSLPSDFTFQNMNSKRKAETWKRNRRQLAFSTVGTPDYIAPEVFMQTGYNKLCDWWSLGVIMYEMLIGYPPFCSETPQETYKKVMNWKETLTFPPEVPISEKAKDLILRFCCEWEHRIGAPGVEEIKSNSFFEGVDWEHIRERPAAISIEIKSIDDTSNFDEFPESDILKPTVATSNHPETDYKNKDWVFINYTYKRFEGLTARGAIPSYMKAAK
# B2: human SFPQ; sequence looked up; chain MSRDRFRSRGGGGGGFHRRGGGGGRGGLHDFRSPPPGMGLNQNRGPMGPGPGQSGPKPPIPPPPPHQQQQQPPPQQPPPQQPPPHQPPPHPQPHQQQQPPPPPQDSSKPVVAQGPGPAPGVGSAPPASSSAPPATPPTSGAPPGSGPGPTPTPPPAVTSAPPGAPPPTPPSSGVPTTPPQAGGPPPPPAAVPGPGPGPKQGPGPGGPKGGKMPGGPKPGGGPGLSTPGGHPKPPHRGGGEPRGGRQHHPPYHQQHHQGPPPGGPGGRSEEKISDSEGFKANLSLLRRPGEKTYTQRCRLFVGNLPADITEDEFKRLFAKYGEPGEVFINKGKGFGFIKLESRALAEIAKAELDDTPMRGRQLRVRFATHAAALSVRNLSPYVSNELLEEAFSQFGPIERAVVIVDDRGRSTGKGIVEFASKPAARKAFERCSEGVFLLTTTPRPVIVEPLEQLDDEDGLPEKLAQKNPMYQKERETPPRFAQHGTFEYEYSQRWKSLDEMEKQQREQVEKNMKDAKDKLESEMEDAYHEHQANLLRQDLMRRQEELRRMEELHNQEMQKRKEMQLRQEEERRRREEEMMIRQREMEEQMRRQREESYSRMGYMDPRERDMRMGGGGAMNMGDPYGSGGQKFPPLGGGGGIGYEANPGVPPATMSGSMMGSDMRTERFGQGGAGPVGGQGPRGMGPGTPAGYGRGREEYEGPNKKPRF
# B3: human archaemetzincin-2; sequence looked up; chain MQIIRHSEQTLKTALISKNPVLVSQYEKLNAGEQRLMNEAFQPASDLFGPITLHSPSDWITSHPEAPQDFEQFFSDPYRKTPSPNKRSIYIQSIGSLGNTRIISEEYIKWLTGYCKAYFYGLRVKLLEPVPVSVTRCSFRVNENTHNLQIHAGDILKFLKKKKPEDAFCVVGITMIDLYPRDSWNFVFGQASLTDGVGIFSFARYGSDFYSMHYKGKVKKLKKTSSSDYSIFDNYYIPEITSVLLLRSCKTLTHEIGHIFGLRHCQWLACLMQGSNHLEEADRRPLNLCPICLHKLQCAVGFSIVERYKALVRWIDDESSDTPGATPEHSHEDNGNLPKPVEAFKEWKEWIIKCLAVLQK
# B4: human AP1B1; sequence looked up; chain MTDSKYFTTTKKGEIFELKAELNSDKKEKKKEAVKKVIASMTVGKDVSALFPDVVNCMQTDNLELKKLVYLYLMNYAKSQPDMAIMAVNTFVKDCEDPNPLIRALAVRTMGCIRVDKITEYLCEPLRKCLKDEDPYVRKTAAVCVAKLHDINAQLVEDQGFLDTLKDLISDSNPMVVANAVAALSEIAESHPSSNLLDLNPQSINKLLTALNECTEWGQIFILDCLANYMPKDDREAQSICERVTPRLSHANSAVVLSAVKVLMKFMEMLSKDLDYYGTLLKKLAPPLVTLLSAEPELQYVALRNINLIVQKRPEILKHEMKVFFVKYNDPIYVKLEKLDIMIRLASQANIAQVLAELKEYATEVDVDFVRKAVRAIGRCAIKVEQSAERCVSTLLDLIQTKVNYVVQEAIVVIKDIFRKYPNKYESVIATLCENLDSLDEPEARAAMIWIVGEYAERIDNADELLESFLEGFHDESTQVQLQLLTAIVKLFLKKPTETQELVQQVLSLATQDSDNPDLRDRGYIYWRLLSTDPVAAKEVVLAEKPLISEETDLIEPTLLDELICYIGTLASVYHKPPSAFVEGGRGVVHKSLPPRTASSESAESPETAPTGAPPGEQPDVIPAQGDLLGDLLNLDLGPPVSGPPLATSSVQMGAVDLLGGGLDSLMGDEPEGIGGTNFVAPPTAAVPANLGAPIGSGLSDLFDLTSGVGTLSGSYVAPKAVWLPAMKAKGLEISGTFTRQVGSISMDLQLTNKALQVMTDFAIQFNRNSFGLAPAAPLQVHAPLSPNQTVEISLPLSTVGSVMKMEPLNNLQVAVKNNIDVFYFSTLYPLHILFVEDGKMDRQMFLATWKDIPNENEAQFQIRDCPLNAEAASSKLQSSNIFTVAKRNVEGQDMLYQSLKLTNGIWVLAELRIQPGNPSCTDLELSLKCRAPEVSQHVYQAYETILKN
Molecule,target,test,system,conditions,scale,quantity,value
GEMVGQARILAQATSDLVNAIKDA,vinculin head domain Vd1,"complex rupture, AFM single-molecule force spectroscopy",peptide,"multiple traces, C-terminal pulling, 800 nm/s",,rupture force FWHM lower side,17 pN
CCGTAGTGCGTCGCCTCCGTTGCCGGGGAAACGACTCAAGTCAATCGGTCC (dsDNA; 5'-amino-C6 primer),"T1, TOA1/TOA2 1-286; 1-122 (Saccharomyces cerevisiae)",array,"double-stranded DNA, one strand shown",TFIIA alone,,Kd,0.0892 ± 0.0317 µM
VVVGAVGVGK,HLA-A*11:01 peptide-β2M single-chain trimer,"western blot, measured: pMHC-I","peptide, 293T cells","18 h, unit not given, together with: 100 µg/mL cycloheximide",relative to: time zero,remaining protein,0.896 and 0.905 and 0.87
GSGAGKESYV,"construct, MBP fusion, human SCRIB, PDZ 3-4",surface plasmon resonance,peptide,concentration not given,higher = stronger binding,normalised SPR binding response,18.4 normalised RU
cytidine monophosphate,adenosine A2A receptor thermostabilised,equilibrium dialysis LC-MS,,"5 µM, normalised z-score",relative to: no protein,log2 fold change,0.106
GSGAGKETSF,"construct, MBP fusion, human SCRIB, PDZ 3-4",surface plasmon resonance,peptide,concentration not given,higher = stronger binding,normalised SPR binding response,44.1 normalised RU
B1 (STK38),PP6C (human),"co-immunoprecipitation, IP-MS",CYB5R4 knockout cells,concentration not given,relative to: CYB5R4 knockout over parental,log2 fold change,-0.17
Nonidet P-40,HBV core protein Cp149 dimer,solution NMR,,"4 molar equivalents, pH 7.5, 295 K, average over eight residues",relative to: apo Cp149 dimer,average chemical shift perturbation,0.021 ppm
B2 (human SFPQ),PP6C (human),"co-immunoprecipitation, IP-MS",CYB5R4 knockout cells,concentration not given,relative to: CYB5R4 knockout over parental,log2 fold change,-0.15
GSGAGPETLV,"construct, MBP fusion, human SCRIB, PDZ 3-4",automated holdup,"peptide, crude extract","concentration not given, uncorrected, unit not given","relative to: biotin control resin, higher = stronger binding",binding intensity,0.347
GGUUUUUAA (ssRNA),U2AF2,sequencing of bound RNA,RNA,motif only,,Kd,5.59 µM
B3 (human archaemetzincin-2),PP6C (human),"co-immunoprecipitation, IP-MS",CYB5R4 knockout cells,concentration not given,relative to: CYB5R4 knockout over parental,log2 fold change,-1.78
GSGAGQITKV,"construct, MBP fusion, human SCRIB, PDZ 3-4",surface plasmon resonance,peptide,concentration not given,higher = stronger binding,normalised SPR binding response,0 normalised RU
"ATP synthase subunit beta, human",PP6C (human),"co-immunoprecipitation, IP-MS",CYB5R4 knockout cells,concentration not given,relative to: CYB5R4 knockout over parental,log2 fold change,-0.09
GSGAGKETRV,"construct, MBP fusion, human SCRIB, PDZ 3-4",automated holdup,"peptide, purified PDZ protein","concentration not given, unit not given","relative to: biotin control resin, higher = stronger binding",binding intensity,0.114
VVVGACGVGK,HLA-A*11:01 peptide-β2M single-chain trimer,"western blot, measured: pMHC-I","peptide, 293T cells","60 h, unit not given, together with: 100 µg/mL cycloheximide",relative to: time zero,remaining protein,0.671 and 0.655 and 0.663
Peginesatide,ERK2 (MAPK1) human,"LC-MS/MS phosphoproteomics, measured: ERK2 phosphotyrosine site 186",UT7/EPO,"10 nM, 15 min, together with: EPO 10 U/mL",relative to: vehicle,phosphorylation fold change,46.2 fold
B4 (human AP1B1),PP6C (human),"co-immunoprecipitation, IP-MS",CYB5R4 knockout cells,concentration not given,relative to: CYB5R4 knockout over parental,log2 fold change,-1.63
GSGAGSETSV,"construct, MBP fusion, human SCRIB, PDZ 3-4",surface plasmon resonance,peptide,concentration not given,higher = stronger binding,normalised SPR binding response,53.2 normalised RU
DNA topoisomerase 2-beta (human),PP6C (human),"co-immunoprecipitation, IP-MS",CYB5R4 knockout cells,concentration not given,relative to: CYB5R4 knockout over parental,log2 fold change,0.43
UUUGUUUGC (ssRNA),U2AF2,sequencing of bound RNA,RNA,motif only,,Kd,10.3 µM
